Published values from different studies.
A part holds a random share of what one study measured.

Study 1 — method: RNA Bind-n-Seq; form: RNA; sample: in vitro; concentration: 1 µM; setting: whole 134-nt RNA, ends assumed; added: 150 mM KCl; relative to: input library; direction: higher = stronger binding; quantity: log2 enrichment
Target: Ras GTPase-activating protein-binding protein 1, RRM domain (G3BP1, Homo sapiens, UniProt Q13283)
Sequence of UniProt Q13283 (whole entry, looked up): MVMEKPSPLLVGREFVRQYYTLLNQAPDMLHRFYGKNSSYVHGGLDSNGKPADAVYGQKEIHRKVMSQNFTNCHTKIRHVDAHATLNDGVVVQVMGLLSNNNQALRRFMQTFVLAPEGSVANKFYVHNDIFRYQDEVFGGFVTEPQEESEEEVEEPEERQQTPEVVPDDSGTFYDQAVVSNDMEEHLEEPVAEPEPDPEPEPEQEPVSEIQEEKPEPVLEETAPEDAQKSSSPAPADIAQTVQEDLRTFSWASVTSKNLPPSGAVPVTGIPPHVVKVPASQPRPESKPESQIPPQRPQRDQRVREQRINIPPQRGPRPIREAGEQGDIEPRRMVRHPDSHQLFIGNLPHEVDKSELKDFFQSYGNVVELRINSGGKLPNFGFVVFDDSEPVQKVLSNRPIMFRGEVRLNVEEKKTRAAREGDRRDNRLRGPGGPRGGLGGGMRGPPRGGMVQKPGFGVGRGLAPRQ
Constant ends, left off below: GGGAGUUCUACAGUCCGACGAUC … UGGAAUUCUCGGGUGUCAAGG
GUCCUGUGCUACACAUCGUAUGUACCGAAUCGGGGUUUUUGGGGAGGGGAAAAAGGGGAAAGUAUUAUGUUACGCCGUUCGGAUCUGCAC: 0.813
UCCUCAAGUCCUGUGCUACACAUCGUAUGUACCGAAUCGGAGGGAGGGAGGAAAGUAUUAUGUUACGCCGUUCGGAUCUGCACUUCCAGC: -0.256
GUCCUGUGCUACACAUCGUAUGUACCGAAUCGGGCCCCCGGGGCCCCCGGGCCCCCGGGAAAGUAUUAUGUUACGCCGUUCGGAUCUGCA: -0.627
GUCCUGUGCUACACAUCGUAUGUACCGAAUCGGGUUUUUUGGUUUUUUGGUUUUUUGGAAAGUAUUAUGUUACGCCGUUCGGAUCUGCAC: -0.133
UCAAGUCCUGUGCUACACAUCGUAUGUACCGAAUCGGUUUGGAAAAAAAGGAGGAAAGUAUUAUGUUACGCCGUUCGGAUCUGCACUUCC: -0.122
UCCUGUGCUACACAUCGUAUGUACCGAAUCGGGUUUUUUGGGUUUUUUGGUUUUUUGGGAAAGUAUUAUGUUACGCCGUUCGGAUCUGCA: -0.0653
AAGUCCUGUGCUACACAUCGUAUGUACCGAAUCGGUUUUUUUGGUUUGGAAAAAGGAAAGUAUUAUGUUACGCCGUUCGGAUCUGCACUU: -0.306
GCAGGAAGUAAAAACAACUGGAAAUGCUUCGGAUAGUGGCAGGGGUGGGGGUUGCUAAGGAAAGGGUGGGAUGGGAGUGGGUAAAGAGUU: 0.952
CAAGUCCUGUGCUACACAUCGUAUGUACCGAAUCGGAAAGGAAAGGUUUUUUUGGAAAGUAUUAUGUUACGCCGUUCGGAUCUGCACUUC: -0.317
UCAAGUCCUGUGCUACACAUCGUAUGUACCGAAUCGGGGCCGGCCGGGGCCGGGAAAGUAUUAUGUUACGCCGUUCGGAUCUGCACUUCC: -0.782
ACCAUGCAGGUGGGCAUCUUUGGGAAGUGGGGCAAGGGGGGGAUAGGGAGGGGGGUAACACUUAAAGAACAGGUGGUCCCAGGUCGUUUC: -0.421
ACCAUGCAGGUGGGCAUCUUUGGGAAUUGGGGCAAGGGGGGGAUAGGGAGGGGGGUAACACUUUGGGAACAGGUGGUCCCAGGUCGUUUC: -0.361
UUCCUCAAGUCCUGUGCUACACAUCGUAUGUACCGAAUCGGAGGAGGAGGAAAGUAUUAUGUUACGCCGUUCGGAUCUGCACUUCCAGCA: -0.358
AGUCCUGUGCUACACAUCGUAUGUACCGAAUCGGGGUGGGGAAAAAGGGGUUUGGGGAAAGUAUUAUGUUACGCCGUUCGGAUCUGCACU: 0.972

Study 2 — method: protein-binding microarray; form: double-stranded DNA, one strand shown; sample: in vitro; concentration: not given; direction: higher = stronger binding; quantity: E-score
Target: Protein max, full length (MAX, Homo sapiens, UniProt P61244-2, residues 1-151)
Setting: k-mer, scored over probes, only values ≥0.25
ACGTGGCT: 0.45
GCATGGGC: 0.421
GCGTGCTA: 0.426
CACGGGTA: 0.337
CATGGAAA: 0.267
ACCACGTG: 0.498
TGCCGGCA: 0.323
ATCAGGTG: 0.354
CAGACATG: 0.273
CATGCGCA: 0.425
ATGCACGC: 0.42
CGTGCGCC: 0.417
ATGCTCCA: 0.293
GCATGGGA: 0.373
CGTGTCAG: 0.312
ACCGCGTG: 0.481
ACGCTTGA: 0.251
AACCACCT: 0.265
GCCCCGCC: 0.265
CGTGCCAG: 0.269
ACGTGTAC: 0.399
CCCGTGCG: 0.369
AGGTCACG: 0.353
TGCACACA: 0.273
ACATGGAT: 0.283

Study 3 — method: universal PBM; form: double-stranded DNA, one strand shown; sample: in vitro; concentration: not given; direction: higher = stronger binding; quantity: E-score
Target: Sal-like protein 4, full length isoform B (SALL4, Homo sapiens, UniProt Q9UJQ4-2, residues 1-616)
Setting: 8-mer, flanks averaged, mean of replicates
GATTAGCC: -0.098
ATGCTGGC: -0.0392
ATGCAAAG: 0.122
AACCCGGA: -0.324
GGCCCCAA: -0.188
GGTGATGA: 0.00874
TTGAAAAA: 0.342
AGGGGACT: -0.14
CTTTAATA: 0.39
GGAGTTGA: -0.00898
GAAGCTGA: 0.0431
ATCGGTTC: -0.171
ACCGTTTC: -0.182
ATGTAGGG: 0.0479
ATTAGTAA: 0.302
CTGCTGAA: -0.0916
ACGTCCAG: -0.112
AGAAAGCT: -0.00444
GGCCATGA: -0.1
CTATCTCA: 0.0312
CGGTATAG: -0.108
AGCAAACC: 0.0678
CTGTGCTA: -0.0602
CAAAGTCC: -0.146
AGTGATGA: 0.0744

Study 4 — method: competition protein-binding microarray; form: double-stranded DNA, one strand shown; sample: in vitro; concentration: 2 µM; added: Pho4 competitor, 0.05 µM; direction: higher = stronger binding; quantity: fluorescence intensity; constant ends, left off below: … GTCTTGATTCGCTTGACGCTGCTG
Target: Centromere-binding protein 1, full length, His-tagged (CBF1, Saccharomyces cerevisiae, UniProt P17106, residues 1-351)
Sequence of UniProt P17106 (whole entry, looked up): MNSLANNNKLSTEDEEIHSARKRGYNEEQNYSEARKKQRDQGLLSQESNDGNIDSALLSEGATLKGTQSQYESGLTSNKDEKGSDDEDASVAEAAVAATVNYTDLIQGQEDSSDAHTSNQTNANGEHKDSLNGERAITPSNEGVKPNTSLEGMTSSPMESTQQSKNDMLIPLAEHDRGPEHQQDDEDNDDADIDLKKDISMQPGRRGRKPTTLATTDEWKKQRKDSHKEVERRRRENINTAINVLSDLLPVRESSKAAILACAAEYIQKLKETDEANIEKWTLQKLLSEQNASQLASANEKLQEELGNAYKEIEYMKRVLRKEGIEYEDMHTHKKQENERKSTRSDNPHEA
Setting: whole 60-bp probe, lowest competitor level
ATGGGTACCACAAAGCGAGGTCGCTTTTGAAGAGCC: 49.6 a.u.
CGGGAGTGTTTTTTTTCCGTGCGGATTTTCTTAGCT: 76.2 a.u.
ATACTTGAAACATTTCACGTTCCCGAAGACGTAGAC: 94.9 a.u.
ATTTTCTCTGATTTTCTCGTGCGGACAATAAGTAAA: 90.6 a.u.
CATACCCAACCTTGTCACGCAACTTAAGATATTTGT: 135 a.u.
CATACCCAACCTTGGCGTGTGGGTGAAGATATTTGT: 59.8 a.u.
CGGGGTTAAGTTTTTCACGTGTCTTGCTTGCAGCAG: 659 a.u.
GATCCGTATGCTCATCTCGTGATGGAGAAGTAACGC: 403 a.u.
CTCCCTCTGTGCGGCCACGTGGGACTCGTCGTCTTG: 695 a.u.
CTTCTGTAAATTTGGACGGTGGGTGGACGCGCCCCG: 65.1 a.u.
TGTTAATTAAACCATCACGGCTCATTCATTTGAGTT: 91.1 a.u.
AATTGAGAGGGTTTTCACGGGTAGTGGGCACAATGT: 71.2 a.u.
GTCTTGTCTCATTGTAGAGTGGGTGTCCCCACTTCA: 81.6 a.u.
AAAGCGGTAATTTTTCACGTGTCATCACATATCTAT: 927 a.u.
ATACAACAAAGCGACCGCGTGACGGTTAGACAAGAC: 404 a.u.
AATTCTGGAATACTCCACGTGACTCGTATCCGAAAA: 3750 a.u.
ATCTAAAAGTTGGATAACGTGCTTTGGAATTTCTGA: 241 a.u.
TTTACTTAGAACGACCACGTTACGATCTTTAGTTCC: 114 a.u.

Study 5 — method: RNA Bind-n-Seq; form: RNA; sample: in vitro; concentration: not given; relative to: input RNA pool; direction: higher = stronger binding; quantity: bound/input enrichment
Target: RING finger protein unkempt homolog, zinc fingers 1-6, GST-SBP tag (UNK, Homo sapiens, UniProt Q9C0B0, residues 30-357)
Setting: RNA with constant flanks, human-mouse chimeric sites, ends assumed
Constant ends, left off below: GGGAGUUCUACAGUCCGACGAUC … CAACAGAGGAUUGAGCAUCA
Residues (chain): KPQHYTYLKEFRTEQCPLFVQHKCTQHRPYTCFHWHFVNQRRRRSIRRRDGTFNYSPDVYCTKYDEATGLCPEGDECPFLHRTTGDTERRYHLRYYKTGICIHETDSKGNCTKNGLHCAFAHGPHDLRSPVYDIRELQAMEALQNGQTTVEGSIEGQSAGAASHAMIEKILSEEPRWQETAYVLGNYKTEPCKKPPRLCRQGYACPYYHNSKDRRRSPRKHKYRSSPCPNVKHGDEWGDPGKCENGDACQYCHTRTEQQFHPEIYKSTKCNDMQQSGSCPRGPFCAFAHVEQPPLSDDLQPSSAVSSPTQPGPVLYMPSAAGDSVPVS
CCCUCCCCGGGCCACCCACCCCUCCCGCUCCCAGCGGGAGAUCCAGGUUUCUUCUUAUUUCAUAGCAAAUAAGAAAAAUGUUCUACGCACAUUUUGUUCUCAGUAAACGAGGGCCUCUGG: 0.397 ratio
CUGUGUGUGCUGAAUAAAUGGCUUGUAAAGAAGUUUUUCCAAGCUGUAACCCAUGCUGUUAUUAUAGUUGCUGCAAAAUGUCUCUUAUGAUAUUGAUUUUAUUUGUUCUGACUCUCCCUC: 0.782 ratio
AUCAAAUACUUUGGGGAUAUUAUUAGCGUGGGACAGAGAUUGUUGCAAGGAGCUCGGAUCUUAGGGAUUCCAGUUAUCAUAACGGAACAAUACCCCAAAGGACUUGGCAGCACCGUUCAA: 0.336 ratio
AAAGCCCAAGUAUUUUGAAAAAACUCGAACAGAUUUGACAAGGGUAGCCAGCUUGGAGUCUAGCAACUUGCCAAUGUGUUUACCAAUUUUGGGGGCUGUUUUUCUUUUCUUCUUUCAAAU: 0.439 ratio
UCUUUAAAAAAAAAAUUACCUUUUCUGACAGUGCUUUAUGGAGUAAAGAUCCACGUUCAAGCUCAAAGAGCAAAGGCUUUGCACGGAGCUCAAACAUCUGAUGAAGAUUUUUGAGACAGA: 0.271 ratio
GGCCUGGGACCGUCCUGGGCUAGUACAAAUAGCGGCAGUGGAGGCUCGAGAGGAAAGUUUGUUAGUGGAGGCAGUGGUAGAGGCCGUAUGUACGCUCCCUUUACUCGUAAAAAUCCUUCU: 0.166 ratio
AUGGAAAAGGAUUCUCUGCCCCGCUUUGUGCGCUCUGAAUUUUAUAAGGAGCUAAUCAAGUAGUCAUCUGGUCAGGCUUCCAAAAGUUCCUGUGAGUGUUGAGUUACAUCCUUUGUAGCA: 0.333 ratio
GGCCUGGGACCGUCCUGGGCUAGUACAAAUAGCGGCAGUGGAGGCUCGAGAGGAAAGUUUGUUAGUGGAGGCAGUGGAGAGGUCGUCCAUGUACGGUCCUUUACUCGUAAAAAUCCUUCU: 0.198 ratio
AGUGUGCAGGAAUUCAUGACCUUUACAAGUCAACUGAUUGUGGAACGCUCAUCGAAAGGCAGCAGAGCUUCUGUCAAAGAACAAGAGUAUCUUUGCCACGUCUACGUCCGGAGCGACAGU: 0.0815 ratio
GAAUCCUACUCAGGCGGAUUUUGCAACCUGAAUGCAACAGCAGCAGCAUCUUAGUCACAGUAGGGUAGUUUUGGGGCAAUAUUGCCAGGGUUUUAUUCACAUGCAGGUUUGGAAAAUGUA: 1.01 ratio
AACAGAUUGUCUUUAAGCAUUCCAAGCAAUGCUUGGGAAAUAGUCAUUGUUGCCCAUGUGCCUUCUGACUGAGCUUUAAUGCUGUUCCAUGUUACAUCUUUCCUUCACUCCAGAAUUGUU: 0.212 ratio

For quick reference, copied from above (study 5):
AAAGCCCAAGUAUUUUGAAAAAACUCGAACAGAUUUGACAAGGGUAGCCAGCUUGGAGUCUAGCAACUUGCCAAUGUGUUUACCAAUUUUGGGGGCUGUUUUUCUUUUCUUCUUUCAAAU: 0.439 ratio
CCCUCCCCGGGCCACCCACCCCUCCCGCUCCCAGCGGGAGAUCCAGGUUUCUUCUUAUUUCAUAGCAAAUAAGAAAAAUGUUCUACGCACAUUUUGUUCUCAGUAAACGAGGGCCUCUGG: 0.397 ratio
AUGGAAAAGGAUUCUCUGCCCCGCUUUGUGCGCUCUGAAUUUUAUAAGGAGCUAAUCAAGUAGUCAUCUGGUCAGGCUUCCAAAAGUUCCUGUGAGUGUUGAGUUACAUCCUUUGUAGCA: 0.333 ratio
AUCAAAUACUUUGGGGAUAUUAUUAGCGUGGGACAGAGAUUGUUGCAAGGAGCUCGGAUCUUAGGGAUUCCAGUUAUCAUAACGGAACAAUACCCCAAAGGACUUGGCAGCACCGUUCAA: 0.336 ratio
CUGUGUGUGCUGAAUAAAUGGCUUGUAAAGAAGUUUUUCCAAGCUGUAACCCAUGCUGUUAUUAUAGUUGCUGCAAAAUGUCUCUUAUGAUAUUGAUUUUAUUUGUUCUGACUCUCCCUC: 0.782 ratio
AGUGUGCAGGAAUUCAUGACCUUUACAAGUCAACUGAUUGUGGAACGCUCAUCGAAAGGCAGCAGAGCUUCUGUCAAAGAACAAGAGUAUCUUUGCCACGUCUACGUCCGGAGCGACAGU: 0.0815 ratio
GGCCUGGGACCGUCCUGGGCUAGUACAAAUAGCGGCAGUGGAGGCUCGAGAGGAAAGUUUGUUAGUGGAGGCAGUGGAGAGGUCGUCCAUGUACGGUCCUUUACUCGUAAAAAUCCUUCU: 0.198 ratio
UCUUUAAAAAAAAAAUUACCUUUUCUGACAGUGCUUUAUGGAGUAAAGAUCCACGUUCAAGCUCAAAGAGCAAAGGCUUUGCACGGAGCUCAAACAUCUGAUGAAGAUUUUUGAGACAGA: 0.271 ratio
GGCCUGGGACCGUCCUGGGCUAGUACAAAUAGCGGCAGUGGAGGCUCGAGAGGAAAGUUUGUUAGUGGAGGCAGUGGUAGAGGCCGUAUGUACGCUCCCUUUACUCGUAAAAAUCCUUCU: 0.166 ratio
